# Assay results pooled from the literature.
# Each numbered part is a random draw from the data of one study; scales do not carry over between parts. Changes are numbered by the printed parent chain.

# Study 1
# Target: CCNE1, cyclin fold, Cln2 fusion (human)
# Technique: yeast growth competition, sequencing
# Matrix: yeast
# Setting: strong parent motif
# Reference: not given
# Direction: higher = stronger binding
# Parent: BRCA2 docking peptide (human); PSIKRNLLNEFDR; partner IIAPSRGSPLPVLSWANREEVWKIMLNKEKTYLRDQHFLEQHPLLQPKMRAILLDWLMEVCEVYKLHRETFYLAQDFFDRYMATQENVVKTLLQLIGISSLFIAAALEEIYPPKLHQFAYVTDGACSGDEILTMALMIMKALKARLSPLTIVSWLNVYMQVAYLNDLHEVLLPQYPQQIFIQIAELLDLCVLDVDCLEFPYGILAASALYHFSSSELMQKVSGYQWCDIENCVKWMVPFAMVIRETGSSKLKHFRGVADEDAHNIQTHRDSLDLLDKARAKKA
Change,normalised enrichment score
PSIKRNLLNEFIR [D12I],-0.344
PSIKCNLLNEFDR [R5C],-0.0137
PSIKHNLLNEFDR [R5H],-0.566
PSIKRHLLNEFDR [N6H],1.5
PSIRRNLLNEFDR [K4R],0.999
PSIKRDLLNEFDR [N6D],0.863
PSIKANALNEFDR [R5A L7A],-0.011
PSIKRNLLNEFVR [D12V],1.57
PSHKRNLLNEFDR [I3H],3.9

# Study 2
# Target: Interferon regulatory factor 7, full length, phosphomimetic (IRF7, Homo sapiens, UniProt Q92985, residues 1-503, S101K/S471D/S472D/S475D/S476D/S477D/S483D/S484D/S487D)
# Technique: protein-binding microarray
# Molecule type: double-stranded DNA, one strand shown
# Matrix: in vitro
# Concentration: 250 nM
# Setting: 60-bp whole probe
# Together with: salmon DNA 0.4 mg/ml
# Reference: random background probes
# Direction: higher = stronger binding
# Shared flanks, not repeated: GCCTAGCAC … GTCTTGATTCGCTTGACGCTGCTG
# Construct (chain): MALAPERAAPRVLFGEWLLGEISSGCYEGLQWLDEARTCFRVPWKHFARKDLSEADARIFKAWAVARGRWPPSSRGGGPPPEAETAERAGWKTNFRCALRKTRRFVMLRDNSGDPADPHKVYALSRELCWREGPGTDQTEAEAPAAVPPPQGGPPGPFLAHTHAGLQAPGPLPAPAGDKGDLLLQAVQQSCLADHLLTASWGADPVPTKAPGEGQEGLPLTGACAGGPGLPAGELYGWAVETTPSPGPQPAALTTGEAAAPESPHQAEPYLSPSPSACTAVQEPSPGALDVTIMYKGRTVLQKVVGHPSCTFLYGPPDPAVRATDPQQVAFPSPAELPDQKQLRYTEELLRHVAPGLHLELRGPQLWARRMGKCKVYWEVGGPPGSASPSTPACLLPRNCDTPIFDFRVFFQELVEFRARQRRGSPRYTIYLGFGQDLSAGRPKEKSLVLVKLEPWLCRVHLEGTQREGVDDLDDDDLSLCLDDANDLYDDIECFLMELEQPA
Sequence,log fluorescence
TCACCTTTGCCTCATCTTACTGTGCTA,0.623 z-score
AGTTCTCTGAAGACTCTCTTGGTGCTA,0.525 z-score
TTATGTTTCGGTTTCGGTTAGTGCTAG,13.2 z-score
GACGGACTGGGTTTCGGGGCGTGCTAG,0.924 z-score
GACGGTTTCCGTATCGGGACGTGCTAG,3.39 z-score

# Study 3
# Target: ABI1, truncated, D143A, DHFR fusion (Arabidopsis thaliana)
# Technique: DHFR PCA, deep sequencing
# Matrix: yeast
# Setting: methotrexate growth selection, single substitutions
# Together with: (+)-ABA 4.8 µM
# Reference: wild-type fitted maximum
# Direction: higher = stronger binding
# Parent: PYL1, truncated, DHFR fusion (Arabidopsis thaliana); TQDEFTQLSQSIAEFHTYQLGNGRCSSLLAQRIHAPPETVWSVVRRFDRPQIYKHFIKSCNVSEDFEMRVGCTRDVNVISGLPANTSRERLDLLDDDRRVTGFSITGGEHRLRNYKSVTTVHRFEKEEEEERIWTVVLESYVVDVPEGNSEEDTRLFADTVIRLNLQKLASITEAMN; partner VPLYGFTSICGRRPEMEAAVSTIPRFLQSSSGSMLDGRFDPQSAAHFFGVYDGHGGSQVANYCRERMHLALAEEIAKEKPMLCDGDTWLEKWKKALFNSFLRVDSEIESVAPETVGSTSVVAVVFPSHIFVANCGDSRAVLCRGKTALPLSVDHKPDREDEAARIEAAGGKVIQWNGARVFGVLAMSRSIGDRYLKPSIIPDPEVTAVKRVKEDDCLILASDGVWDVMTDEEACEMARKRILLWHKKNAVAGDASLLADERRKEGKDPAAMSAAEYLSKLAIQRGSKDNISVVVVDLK
Change,relative binding score [%]
V76P,-0.692
R49I,24.2
P83G,33.9
V44L,58.8
K126S,92.4
E38V,3.66
F47P,-16.2
K58H,55.5
R88H,79.6

# Further values, each from its own experiment
Substance,target,test,test system,conditions,scale,quantity,value
"PhoQ, residues 284 288 289 292 302 303 TLASMF","PhoP, residues 12 14 15 18 19 NQAHL (Escherichia coli, UniProt P23836)","Sort-seq, item: YFP reporter",E. coli,"PhoQ-PhoP variant library, together with: 10 µM Mg2+","reference: high Mg2+ state, higher = stronger signaling",fold induction,5.71

# Some of these lines once more (study 1):
Change,normalised enrichment score
PSIKANALNEFDR [R5A L7A],-0.011
PSIKRNLLNEFIR [D12I],-0.344
